{"data": "Assay results collected from several papers", "note": "Every numbered part comes from another study and shows a few of its results, in no order. Changes are numbered by the printed parent chain."}
{"data": "Set 1", "target": "human cyclin A2", "read-out": "peptide binding", "technique": "competitive growth sequencing", "form": "peptide", "organism": "Saccharomyces cerevisiae", "strain": "cyclin A2-Cln2 fusion strain", "tested at": "concentration not given", "notes": "mutational scanning library 1", "baseline": "unfused Cln2 strain", "reading": "direction not given"}
{"Sequence": "GSPAKKLFTSTGL", "binding score": -0.367}
{"Sequence": "GSPLAKAFTSTGL", "binding score": -0.358}
{"Sequence": "GSALKKLFTSTGL", "binding score": 0.991}
{"data": "Set 2", "target": "Fragile X messenger ribonucleoprotein 1, C-terminal low-complexity region (Fmr1, Mus musculus, UniProt P35922)", "technique": "RNA Bind-n-Seq", "form": "RNA", "sample": "in vitro", "tested at": "200 nM", "notes": "whole 134-nt RNA, ends assumed", "together with": "150 mM LiCl", "baseline": "input library", "reading": "higher = stronger binding", "all molecules": "7-deaza-guanosine replaces G", "shared flanks, not repeated": "GGGAGUUCUACAGUCCGACGAUC … UGGAAUUCUCGGGUGUCAAGG"}
{"Strand": "GCAGGAAGUAAAAACAAAUGGAAAUGCUUCGGAUAGUGGCAGCGGUGGGGGUUGCUAAGGAAAGGGUGGGAUGGGAGUGGGUAAAGAGUU", "log2 enrichment": 1.1}
{"Strand": "GUCCUGUGCUACACAUCGUAUGUACCGAAUCGGGAAAAAGGGAAAGGGAAAAAAAGGGAAAGUAUUAUGUUACGCCGUUCGGAUCUGCAC", "log2 enrichment": 0.41}
{"Strand": "UCCUGUGCUACACAUCGUAUGUACCGAAUCGGGGUUUUUUGGUUUUUUGGUUUUUUGGGAAAGUAUUAUGUUACGCCGUUCGGAUCUGCA", "log2 enrichment": -0.615}
{"Strand": "CAAGUCCUGUGCUACACAUCGUAUGUACCGAAUCGGGAGGGAAAAAGGGUUUGGGAAAGUAUUAUGUUACGCCGUUCGGAUCUGCACUUC", "log2 enrichment": -1.84}
{"Strand": "UUACAGAUGUAGAGCUAAAACGACUGAAGGAUGCUUUCAAGAGGACCUGUGGACUCUCAUAUUACAUGGGCCAGCACUGCUUCAUCCGGG", "log2 enrichment": 1.59}
{"Strand": "UUUGCUGAUUUCUGGCUGGCGGAUCAGCUGAACAGCCUGUCAGUGAUACUGAUGGACCUGGAAUAUAUGAUCUGCUUCUACAGUUUGGAG", "log2 enrichment": -3.67}
{"Strand": "AAGUCCUGUGCUACACAUCGUAUGUACCGAAUCAAACCCAAAUUUAAACCCCCAAAAAAGUAUUAUGUUACGCCGUUCGGAUCUGCACUU", "log2 enrichment": 0.956}
{"Strand": "CACAGACAACACGCACCCACACAGACACAGAGGGAAGAGGUUGGGAUGGGGACAGGGUGCACAGCAGGGCGGGGUAGGACCCCAGCCCCU", "log2 enrichment": -0.625}
{"data": "Set 3", "target": "Histone acetyltransferase KAT6A, winged helix 2, GST fusion (KAT6A, Homo sapiens, UniProt Q92794, residues 85-181)", "technique": "protein binding microarray", "form": "double-stranded DNA, one strand shown", "sample": "in vitro", "tested at": "not given", "notes": "8-mer, flanks averaged, mean of 2 arrays, mostly near background", "baseline": "not given", "reading": "higher = stronger binding", "Target sequence (chain)": "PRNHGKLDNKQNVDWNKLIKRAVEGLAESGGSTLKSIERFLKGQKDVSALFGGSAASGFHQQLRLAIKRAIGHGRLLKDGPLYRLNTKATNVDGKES"}
{"Strand": "CGGCGGCA", "E-score": 0.225}
{"Strand": "GGTTCGGA", "E-score": 0.0575}
{"Strand": "CAATAGTC", "E-score": -0.0505}
{"Strand": "ATGGACTG", "E-score": -0.161}
{"Strand": "GCGTGTAC", "E-score": -0.00466}
{"Strand": "CGATCACA", "E-score": 0.0912}
{"Strand": "GACGTACA", "E-score": 0.00894}
{"Strand": "ACATCGAT", "E-score": -0.212}
{"Strand": "CAACTTCA", "E-score": -0.145}
{"Strand": "TACGGTCA", "E-score": 0.000275}
{"Strand": "CACACTGC", "E-score": 0.039}
{"Strand": "ATTTATAA", "E-score": 0.261}
{"Strand": "TCCGTCAA", "E-score": -0.101}
{"Strand": "AATCTAGC", "E-score": -0.0802}
{"Strand": "TAAACCTA", "E-score": -0.0852}
{"Strand": "CTCTAGGA", "E-score": -0.0631}
{"Strand": "GAAGAAGA", "E-score": 0.127}
{"Strand": "ATGGTCAG", "E-score": 0.0542}
{"Strand": "AAGCTCAC", "E-score": 0.00775}
{"Strand": "CATAGAGA", "E-score": -0.175}
{"Strand": "AGAGCACT", "E-score": 0.0603}
{"data": "Set 4", "target": "Centromere-binding protein 1, full length, His-tagged (CBF1, Saccharomyces cerevisiae, UniProt P17106, residues 1-351)", "technique": "competition protein-binding microarray", "form": "double-stranded DNA, one strand shown", "sample": "in vitro", "tested at": "2 µM", "notes": "whole 60-bp probe, lowest competitor level", "together with": "Pho4 competitor, 0.05 µM", "reading": "higher = stronger binding", "shared flanks, not repeated": "… GTCTTGATTCGCTTGACGCTGCTG", "sequence of UniProt P17106 (whole entry, looked up)": "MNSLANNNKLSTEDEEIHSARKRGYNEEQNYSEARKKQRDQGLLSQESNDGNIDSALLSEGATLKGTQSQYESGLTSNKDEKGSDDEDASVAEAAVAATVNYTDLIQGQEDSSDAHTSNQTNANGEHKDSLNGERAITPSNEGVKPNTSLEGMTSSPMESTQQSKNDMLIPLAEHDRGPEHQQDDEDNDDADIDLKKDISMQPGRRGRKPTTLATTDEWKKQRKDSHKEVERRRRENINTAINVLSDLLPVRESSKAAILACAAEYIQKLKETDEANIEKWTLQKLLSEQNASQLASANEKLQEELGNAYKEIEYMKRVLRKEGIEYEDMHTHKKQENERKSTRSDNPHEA"}
{"Strand": "TGCGCAACAACTTGGAAAGTGGGTGTATGTCTAGAA", "fluorescence intensity [a.u.]": 67.4}
{"Strand": "CGTCCTAGTGATTGGGCTGTGGGTGCCATGAGGAAG", "fluorescence intensity [a.u.]": 79.3}
{"Strand": "AAAGCGGTAATTTGCAGCGTGGGTGCAGATATCTAT", "fluorescence intensity [a.u.]": 63.8}
{"Strand": "AAAGCGGTAATTTGGAATGTGGGTGCAGATATCTAT", "fluorescence intensity [a.u.]": 85.1}
{"Strand": "AGTTCTCTATTCCGCACCGTGCCGAGTTGTGGCAAA", "fluorescence intensity [a.u.]": 73.5}
{"Strand": "AAAGCGGTAATTTGTCACCAGACTTCACATATCTAT", "fluorescence intensity [a.u.]": 109}
{"Strand": "AGACGCTAGACCTGCCATGTGGAGATCCGGGGCGGA", "fluorescence intensity [a.u.]": 69.2}
{"Strand": "AATGAAGACCGGGAATTCGTGCCGAGTTCGAGTTTG", "fluorescence intensity [a.u.]": 70.4}
{"Strand": "CGGGGTTAAGTTTGCGCAGTGGGTGGCTTGCAGCAG", "fluorescence intensity [a.u.]": 72.8}
{"Strand": "AACTTCAGAAATTTGTCCGTGATGGTTTAATGGTCA", "fluorescence intensity [a.u.]": 101}
{"Strand": "CTTCTGTAAATTTCACACGTGTTTTGACGCGCCCCG", "fluorescence intensity [a.u.]": 952}
{"Strand": "CCAATTGCAAAATATCACCTGGGACGACTTCGTTGG", "fluorescence intensity [a.u.]": 80.4}
{"Strand": "AAATTACTAAGTTGTCACCTTACTTACCCCGTATGA", "fluorescence intensity [a.u.]": 75.3}
{"Strand": "CGTCCTAGTGATTGCCTGGTGGGTGCCATGAGGAAG", "fluorescence intensity [a.u.]": 65.8}
{"Strand": "AAAGCGGTAATTTGCTCCGTGGGTGCAGATATCTAT", "fluorescence intensity [a.u.]": 82.3}
{"Strand": "CTAACGAAGGTTTGTCACGGTACTTACAAGCCAAGT", "fluorescence intensity [a.u.]": 164}
{"Strand": "ATAGTCAATGAAACATTCGTGACGGAACAATGAGAT", "fluorescence intensity [a.u.]": 102}
{"Strand": "CAAGGGATTTTGACGCCCGTGACGGAGGATGATTTG", "fluorescence intensity [a.u.]": 183}
{"Strand": "TTGAGCTTATAAAAGCACGTGACGGCAATTCACCCC", "fluorescence intensity [a.u.]": 11800}
{"data": "Set 5", "target": "CEBPD, bZIP domain (human)", "technique": "DHFR protein complementation", "sample": "yeast", "notes": "single substitutions, most at no-binding floor", "baseline": "wild-type JUN-FOS pair", "reading": "higher = stronger binding", "starting sequence": "JUN, bZIP domain (human); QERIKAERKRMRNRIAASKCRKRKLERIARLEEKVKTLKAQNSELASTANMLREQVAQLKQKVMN; partner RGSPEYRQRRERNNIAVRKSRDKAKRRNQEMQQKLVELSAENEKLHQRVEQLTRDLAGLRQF"}
{"Substitution": "L45R", "binding fitness [natural log]": -1.51}
{"Substitution": "E32I", "binding fitness [natural log]": -1.29}
{"Substitution": "T37Y", "binding fitness [natural log]": -1.34}
{"Substitution": "T37L", "binding fitness [natural log]": -1.26}
{"Substitution": "T37W", "binding fitness [natural log]": -1.31}
{"Substitution": "K39P", "binding fitness [natural log]": -1.48}
{"Substitution": "N42K", "binding fitness [natural log]": -1.43}
{"Substitution": "E33H", "binding fitness [natural log]": -1.42}
{"Substitution": "K34Q", "binding fitness [natural log]": -1.4}
{"Substitution": "M51F", "binding fitness [natural log]": -1.28}
{"Substitution": "S43I", "binding fitness [natural log]": -1.28}
{"Substitution": "K39Q", "binding fitness [natural log]": -1.29}
{"Substitution": "S43V", "binding fitness [natural log]": -1.35}
{"Substitution": "A49W", "binding fitness [natural log]": -1.32}
{"Substitution": "A40M", "binding fitness [natural log]": -1.3}
{"Substitution": "Q55W", "binding fitness [natural log]": -1.41}
{"Substitution": "Q55R", "binding fitness [natural log]": -1.39}
{"Substitution": "A49P", "binding fitness [natural log]": -1.52}
{"note": "Repeated from above (set 3):"}
{"Strand": "AATCTAGC", "E-score": -0.0802}
{"Strand": "TAAACCTA", "E-score": -0.0852}
{"Strand": "CTCTAGGA", "E-score": -0.0631}
{"Strand": "GAAGAAGA", "E-score": 0.127}
